Published values gathered from unrelated publications.
A part holds a random share of what one study measured. Values joined by “and” are separate records of one study, mostly repeats; a detail may differ.
Chain of UniProt P42336 (whole entry, unmodified, looked up): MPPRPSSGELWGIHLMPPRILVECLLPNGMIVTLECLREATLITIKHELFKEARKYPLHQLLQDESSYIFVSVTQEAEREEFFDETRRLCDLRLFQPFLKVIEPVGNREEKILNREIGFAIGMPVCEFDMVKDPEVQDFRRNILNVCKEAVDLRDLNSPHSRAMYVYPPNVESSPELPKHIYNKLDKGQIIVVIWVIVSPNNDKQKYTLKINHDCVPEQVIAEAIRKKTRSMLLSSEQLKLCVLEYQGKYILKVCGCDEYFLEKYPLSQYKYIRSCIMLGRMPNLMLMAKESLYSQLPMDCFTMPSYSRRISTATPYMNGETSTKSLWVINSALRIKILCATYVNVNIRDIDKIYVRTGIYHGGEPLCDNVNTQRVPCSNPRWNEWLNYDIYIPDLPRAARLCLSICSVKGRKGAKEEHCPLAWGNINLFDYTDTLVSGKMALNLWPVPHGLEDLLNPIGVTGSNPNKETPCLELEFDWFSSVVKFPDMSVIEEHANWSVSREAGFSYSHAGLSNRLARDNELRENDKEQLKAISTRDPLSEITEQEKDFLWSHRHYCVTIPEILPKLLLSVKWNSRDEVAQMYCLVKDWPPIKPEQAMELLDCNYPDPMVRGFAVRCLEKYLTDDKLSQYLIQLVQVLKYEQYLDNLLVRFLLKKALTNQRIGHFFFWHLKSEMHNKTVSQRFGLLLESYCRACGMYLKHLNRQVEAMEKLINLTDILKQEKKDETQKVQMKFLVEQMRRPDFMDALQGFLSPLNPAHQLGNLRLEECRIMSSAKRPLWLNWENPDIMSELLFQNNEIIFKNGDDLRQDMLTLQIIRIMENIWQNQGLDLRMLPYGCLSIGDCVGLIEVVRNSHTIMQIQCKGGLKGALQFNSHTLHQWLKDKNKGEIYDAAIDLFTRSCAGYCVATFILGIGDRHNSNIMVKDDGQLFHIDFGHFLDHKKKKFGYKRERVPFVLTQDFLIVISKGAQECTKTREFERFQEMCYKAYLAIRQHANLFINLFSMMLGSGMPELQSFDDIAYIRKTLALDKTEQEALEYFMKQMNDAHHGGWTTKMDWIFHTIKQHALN
Chain of UniProt Q15759 (whole entry, looked up): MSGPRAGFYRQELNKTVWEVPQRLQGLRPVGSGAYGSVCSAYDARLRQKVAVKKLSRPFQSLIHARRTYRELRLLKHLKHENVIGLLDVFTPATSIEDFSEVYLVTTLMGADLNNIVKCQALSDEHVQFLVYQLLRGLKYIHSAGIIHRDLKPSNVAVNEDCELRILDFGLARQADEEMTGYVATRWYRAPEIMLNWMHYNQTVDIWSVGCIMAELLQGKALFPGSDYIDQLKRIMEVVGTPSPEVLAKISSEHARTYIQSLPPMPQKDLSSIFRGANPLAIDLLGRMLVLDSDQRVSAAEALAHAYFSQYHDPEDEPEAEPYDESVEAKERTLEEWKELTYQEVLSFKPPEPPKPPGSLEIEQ
Chain of UniProt P49841 (whole entry, looked up): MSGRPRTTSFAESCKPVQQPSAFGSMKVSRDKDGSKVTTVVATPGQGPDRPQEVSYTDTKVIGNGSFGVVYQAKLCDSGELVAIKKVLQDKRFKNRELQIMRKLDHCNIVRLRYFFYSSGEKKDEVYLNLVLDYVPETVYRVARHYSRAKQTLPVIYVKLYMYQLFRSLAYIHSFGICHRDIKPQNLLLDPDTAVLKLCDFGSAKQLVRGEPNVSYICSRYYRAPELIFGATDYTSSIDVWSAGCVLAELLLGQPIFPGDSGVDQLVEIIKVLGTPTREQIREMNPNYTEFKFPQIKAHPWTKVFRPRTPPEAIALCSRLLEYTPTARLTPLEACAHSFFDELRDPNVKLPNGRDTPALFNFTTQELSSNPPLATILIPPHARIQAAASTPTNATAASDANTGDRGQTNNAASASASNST
Chain of UniProt Q6ZN16 (whole entry, looked up): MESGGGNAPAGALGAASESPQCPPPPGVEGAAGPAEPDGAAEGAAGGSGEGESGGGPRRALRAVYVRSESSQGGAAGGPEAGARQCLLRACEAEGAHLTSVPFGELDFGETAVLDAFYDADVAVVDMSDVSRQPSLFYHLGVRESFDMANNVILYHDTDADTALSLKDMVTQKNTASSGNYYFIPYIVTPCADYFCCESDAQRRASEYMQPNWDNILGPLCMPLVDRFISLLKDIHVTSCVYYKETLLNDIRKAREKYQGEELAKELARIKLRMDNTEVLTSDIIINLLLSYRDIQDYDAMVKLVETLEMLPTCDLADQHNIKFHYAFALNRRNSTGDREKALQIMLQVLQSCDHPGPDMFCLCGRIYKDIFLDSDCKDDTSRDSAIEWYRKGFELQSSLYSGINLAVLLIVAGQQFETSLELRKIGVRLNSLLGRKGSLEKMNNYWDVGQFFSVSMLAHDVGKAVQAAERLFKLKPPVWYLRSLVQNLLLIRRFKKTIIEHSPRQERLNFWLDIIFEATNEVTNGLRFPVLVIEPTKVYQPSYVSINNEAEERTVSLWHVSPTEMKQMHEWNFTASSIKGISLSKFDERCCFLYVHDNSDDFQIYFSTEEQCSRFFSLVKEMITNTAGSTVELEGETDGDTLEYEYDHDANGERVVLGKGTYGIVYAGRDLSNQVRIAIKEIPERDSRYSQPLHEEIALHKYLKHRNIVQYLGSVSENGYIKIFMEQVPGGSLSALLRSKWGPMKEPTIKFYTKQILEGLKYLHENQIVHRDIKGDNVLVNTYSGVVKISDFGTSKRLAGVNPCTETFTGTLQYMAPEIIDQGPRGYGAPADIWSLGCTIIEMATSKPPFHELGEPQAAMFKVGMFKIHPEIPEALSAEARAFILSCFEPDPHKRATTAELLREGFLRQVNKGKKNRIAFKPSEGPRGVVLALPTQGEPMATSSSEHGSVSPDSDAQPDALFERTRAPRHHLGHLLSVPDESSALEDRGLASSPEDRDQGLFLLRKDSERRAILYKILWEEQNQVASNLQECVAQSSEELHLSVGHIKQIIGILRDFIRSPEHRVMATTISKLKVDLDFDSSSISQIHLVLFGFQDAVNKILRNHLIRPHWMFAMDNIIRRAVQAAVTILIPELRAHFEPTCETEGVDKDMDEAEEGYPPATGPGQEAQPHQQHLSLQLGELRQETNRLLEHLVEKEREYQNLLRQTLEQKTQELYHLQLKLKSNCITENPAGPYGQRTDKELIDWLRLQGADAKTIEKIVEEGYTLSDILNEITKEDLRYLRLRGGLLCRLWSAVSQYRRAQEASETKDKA
Chain of UniProt O15111 (whole entry, looked up): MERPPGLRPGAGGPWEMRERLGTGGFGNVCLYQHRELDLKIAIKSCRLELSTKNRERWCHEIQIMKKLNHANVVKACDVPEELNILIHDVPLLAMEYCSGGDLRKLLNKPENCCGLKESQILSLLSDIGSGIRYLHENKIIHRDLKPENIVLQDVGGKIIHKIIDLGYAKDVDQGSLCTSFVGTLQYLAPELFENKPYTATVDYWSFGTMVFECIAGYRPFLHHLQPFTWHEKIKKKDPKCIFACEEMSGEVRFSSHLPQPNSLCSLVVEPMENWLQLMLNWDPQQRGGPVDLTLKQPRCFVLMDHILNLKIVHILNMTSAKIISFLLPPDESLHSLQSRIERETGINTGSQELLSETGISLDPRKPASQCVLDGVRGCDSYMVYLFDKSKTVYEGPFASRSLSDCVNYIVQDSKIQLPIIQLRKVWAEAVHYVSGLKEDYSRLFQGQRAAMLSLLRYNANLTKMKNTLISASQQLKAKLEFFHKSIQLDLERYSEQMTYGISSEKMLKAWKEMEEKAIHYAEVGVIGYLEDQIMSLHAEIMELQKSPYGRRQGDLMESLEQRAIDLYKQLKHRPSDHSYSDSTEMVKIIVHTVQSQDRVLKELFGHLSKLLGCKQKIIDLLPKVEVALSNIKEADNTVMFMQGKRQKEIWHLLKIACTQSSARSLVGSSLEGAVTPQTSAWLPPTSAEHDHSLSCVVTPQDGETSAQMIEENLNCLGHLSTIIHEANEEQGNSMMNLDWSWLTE
Chain of UniProt Q86UX6 (whole entry, looked up): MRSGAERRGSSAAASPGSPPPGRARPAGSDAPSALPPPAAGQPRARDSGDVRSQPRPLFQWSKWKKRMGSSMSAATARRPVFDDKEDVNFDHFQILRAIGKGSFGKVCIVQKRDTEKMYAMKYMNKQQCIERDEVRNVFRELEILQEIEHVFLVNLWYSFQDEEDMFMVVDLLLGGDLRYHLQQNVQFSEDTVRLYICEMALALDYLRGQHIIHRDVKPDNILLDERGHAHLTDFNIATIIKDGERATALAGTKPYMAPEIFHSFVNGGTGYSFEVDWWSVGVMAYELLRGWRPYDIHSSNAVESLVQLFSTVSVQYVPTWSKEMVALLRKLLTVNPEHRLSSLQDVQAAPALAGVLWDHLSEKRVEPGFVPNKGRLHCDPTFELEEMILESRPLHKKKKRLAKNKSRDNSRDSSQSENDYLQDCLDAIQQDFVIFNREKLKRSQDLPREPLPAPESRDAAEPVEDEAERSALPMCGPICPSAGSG

Set 1
Cell line: mouse MPNST tumor cells
Technique: high-content immunofluorescence imaging
Measured: nuclear SOX9
Concentration: 10 µM
Time: 12 h
Setting: mean of 2 replicates
Baseline: DMSO control
Direction: higher = more nuclear SOX9
| Compound | nuclear SOX9 intensity |
| --- | --- |
| O=C(O[C@@H]1C[C@@H]2C[C@H]3C[C@H](C1)N2CC3=O)c1c[nH]c2ccccc12 | 101 % of DMSO and 88.9 % of DMSO |
| CCN(CC)C(=O)/C(C#N)=C/c1cc(O)c(O)c([N+](=O)[O-])c1 | 106 % of DMSO and 95.6 % of DMSO |
| Cc1ccc(S(=O)(=O)NC2c3ccccc3Oc3ccccc32)cc1 | 107 % of DMSO |
| CCc1c(-c2ccccc2)c(-c2ccccc2)nn1-c1ccccc1-c1cccc(OCC(=O)O)c1 | 102 % of DMSO |
| CN1CCN(C(=O)c2ccc(-n3nc(-c4ccc(C(=O)O)cc4)cc3-c3cc(C(C)(C)C)cc(C(C)(C)C)c3)cc2)CC1 | 92.1 % of DMSO |
| CCOC(=O)C1=C(N)Oc2cc(O)ccc2C1c1cccnc1 (centres unmarked) | 113 % of DMSO |
| Cc1c(OCC(F)(F)F)ccnc1C[S+]([O-])c1nc2ccccc2[nH]1 (centres unmarked) | 98.8 % of DMSO and 96.9 % of DMSO |
| O=S(=O)(c1ccccc1)N(CC(F)(F)F)c1ccc(C(O)(C(F)(F)F)C(F)(F)F)cc1 | 97 % of DMSO |
| CCN(CC)CCc1nc(-c2ccccc2)no1 | 103 % of DMSO |
| O=C(O)c1cc(/N=N/c2ccc(S(=O)(=O)Nc3ccccn3)cc2)ccc1O | 101 % of DMSO and 83.9 % of DMSO |
| COc1ccc(CCC(=O)Nc2nc3ccc(Cl)cc3s2)cc1OC | 104 % of DMSO |
| CNC(=O)c1ccc(C)c(-n2c(C)cc(OCc3ccc(F)cc3F)c(Br)c2=O)c1 | 104 % of DMSO |
| NC(=O)c1cccc(-c2cccc(OC(=O)NC3CCCCC3)c2)c1 | 104 % of DMSO |
| CC(C)Oc1ccc(-c2cnc3c(-c4ccnc5ccccc45)cnn3c2)cc1 | 143 % of DMSO |
| CCCCc1nn(-c2ccccc2C(F)(F)F)c(=O)n1Cc1ccc(-c2ccccc2S(=O)(=O)NC(=O)c2sccc2C)cc1 | 121 % of DMSO |

Set 2
Organism: Sarcocystis neurona
Effect on: parasite growth
Concentration: 10 µM
Time: 96 h
| SMILES | inhibition |
| --- | --- |
| NC[C@H]1CC[C@H](C(=O)Oc2ccc(CCC(=O)O)cc2)CC1 | -9.3% |
| CN(C)CCc1c[nH]c2ccc(C[C@H]3COC(=O)N3)cc12 | -9.5% |
| CCN(CC)CCOC(=O)c1ccc(N)cc1 | -13.9% |
| Cc1ncc([N+](=O)[O-])n1CCO | -8.9% |
| C[C@]12C=CC(=O)C=C1CC[C@@H]1[C@@H]2C(=O)C[C@@]2(C)[C@H]1CC[C@]2(O)C(=O)CO | -18.2% |
| CCCCC(=O)O[C@]1(C(=O)CO)CC[C@H]2[C@@H]3CCC4=CC(=O)CC[C@]4(C)[C@H]3[C@@H](O)C[C@@]21C | -9.6% |
| CC(C)[C@H](N)C(=O)OCCOCn1cnc2c(=O)[nH]c(N)nc21 | -8.2% |
| CC=CC(=O)N(CC)c1ccccc1C (mixture of isomers) | -17.6% |
| CCOc1cc(CC(=O)N[C@@H](CC(C)C)c2ccccc2N2CCCCC2)ccc1C(=O)O | -4.2% |
| COc1ccccc1OCC(O)CN1CCN(CC(=O)Nc2c(C)cccc2C)CC1 (centres unmarked) | -3% |
| CCn1cc(C(=O)O)c(=O)c2cc(F)c(N3CCN(C)CC3)cc21 | -3.9% |
| CC(COc1ccccc1)NC(C)C(O)c1ccc(O)cc1 (centres unmarked) | -12% |
| CCCCN1CCCC1CNC(=O)c1cc(C#N)c2ccccc2c1OC (centres unmarked) | -7.9% |
| CNC(=C[N+](=O)[O-])NCCSCc1csc(CN(C)C)n1 | -18.6% |
| O=c1cnn([C@@H]2O[C@H](CO)[C@@H](O)[C@H]2O)c(=O)[nH]1 | -16.2% |
| COC(=O)CCc1ccc(OCC(O)CNC(C)C)cc1 (centres unmarked) | -11% |
| CC(=O)NCCCCCCNC(C)=O | -8.9% |
| Cc1ccsc1C(=CCCN1CCC[C@@H](C(=O)O)C1)c1sccc1C | -18.7% |

Set 3
Compound: O=C(Nc1cccnn1)N1CCC(=Cc2cccc(Oc3ccc(C(F)(F)F)cn3)c2)CC1
Concentration: 1 µM
| target | effect on | technique | remaining binding [%] |
| --- | --- | --- | --- |
| Phosphatidylinositol 4,5-bisphosphate 3-kinase catalytic subunit alpha isoform (PIK3CA, Homo sapiens, UniProt P42336) | binding | competition with immobilised ligand | 45 |
| Dual specificity tyrosine-phosphorylation-regulated kinase 1B (DYRK1B, Homo sapiens, UniProt Q9Y463) | cell-free assay | competition with immobilised ligand | 100 |
| Serine/threonine-protein kinase 32C (STK32C, Homo sapiens, UniProt Q86UX6) | cell-free assay | competition with immobilised ligand | 100 |
| Cyclin-dependent kinase 19 (CDK19, Homo sapiens, UniProt Q9BWU1) | – | competition binding | 100 |
| Serine/threonine-protein kinase Nek3 (NEK3, Homo sapiens, UniProt P51956) | cell-free assay | competition with immobilised ligand | 100 |
| Hepatocyte growth factor receptor (MET, Homo sapiens, UniProt P08581, Y1235D) | cell-free assay | competition with immobilised ligand | 100 |
| Inhibitor of nuclear factor kappa-B kinase subunit alpha (CHUK, Homo sapiens, UniProt O15111) | cell-free assay | competition with immobilised ligand | 93 |
| Mitogen-activated protein kinase 11 (MAPK11, Homo sapiens, UniProt Q15759) | cell-free assay | competition with immobilised ligand | 83 |
| Wee1-like protein kinase (WEE1, Homo sapiens, UniProt P30291) | cell-free assay | competition with immobilised ligand | 97 |
| Receptor-type tyrosine-protein kinase FLT3, autoinhibited (FLT3, Homo sapiens, UniProt P36888) | cell-free assay | competition with immobilised ligand | 97 |
| Cyclin-dependent kinase 17 (CDK17, Homo sapiens, UniProt Q00537) | cell-free assay | competition with immobilised ligand | 100 |
| Mitogen-activated protein kinase kinase kinase 15 (MAP3K15, Homo sapiens, UniProt Q6ZN16) | cell-free assay | competition with immobilised ligand | 100 |
| Ribosomal protein S6 kinase alpha-2, N-terminal kinase domain (RPS6KA2, Homo sapiens, UniProt Q15349) | cell-free assay | competition with immobilised ligand | 80 |
| Proto-oncogene tyrosine-protein kinase Src (SRC, Homo sapiens, UniProt P12931) | cell-free assay | competition with immobilised ligand | 88 |
| Serine/threonine-protein kinase D3 (PRKD3, Homo sapiens, UniProt O94806) | cell-free assay | competition with immobilised ligand | 83 |
| Receptor-type tyrosine-protein kinase FLT3 (FLT3, Homo sapiens, UniProt P36888, D835V/ITD) | cell-free assay | competition with immobilised ligand | 94 |
| Serine/threonine-protein kinase WNK3 (WNK3, Homo sapiens, UniProt Q9BYP7) | cell-free assay | competition with immobilised ligand | 100 |
| Mitogen-activated protein kinase kinase kinase 4 (MAP3K4, Homo sapiens, UniProt Q9Y6R4) | cell-free assay | competition with immobilised ligand | 100 |
| Receptor-type tyrosine-protein kinase FLT3 (FLT3, Homo sapiens, UniProt P36888, D835H) | cell-free assay | competition with immobilised ligand | 88 |
| Non-receptor tyrosine-protein kinase TYK2, JH1 (TYK2, Homo sapiens, UniProt P29597) | cell-free assay | competition with immobilised ligand | 100 |
| Epidermal growth factor receptor (EGFR, Homo sapiens, UniProt P00533, T790M) | cell-free assay | competition with immobilised ligand | 100 |
| Epidermal growth factor receptor (EGFR, Homo sapiens, UniProt P00533, del747-750/T751S) | cell-free assay | competition with immobilised ligand | 83 |
| Phosphatidylinositol 4,5-bisphosphate 3-kinase catalytic subunit alpha isoform (PIK3CA, Homo sapiens, UniProt P42336, E542K) | cell-free assay | competition with immobilised ligand | 65 |
| Glycogen synthase kinase-3 beta (GSK3B, Homo sapiens, UniProt P49841) | cell-free assay | competition with immobilised ligand | 100 |
| Myotonin-protein kinase (DMPK, Homo sapiens, UniProt Q09013) | cell-free assay | competition with immobilised ligand | 100 |

Set 4
Target: Protein kinase C beta type, isoform beta-II (PRKCB, Homo sapiens, UniProt P05771)
Chain of UniProt P05771 (whole entry, looked up): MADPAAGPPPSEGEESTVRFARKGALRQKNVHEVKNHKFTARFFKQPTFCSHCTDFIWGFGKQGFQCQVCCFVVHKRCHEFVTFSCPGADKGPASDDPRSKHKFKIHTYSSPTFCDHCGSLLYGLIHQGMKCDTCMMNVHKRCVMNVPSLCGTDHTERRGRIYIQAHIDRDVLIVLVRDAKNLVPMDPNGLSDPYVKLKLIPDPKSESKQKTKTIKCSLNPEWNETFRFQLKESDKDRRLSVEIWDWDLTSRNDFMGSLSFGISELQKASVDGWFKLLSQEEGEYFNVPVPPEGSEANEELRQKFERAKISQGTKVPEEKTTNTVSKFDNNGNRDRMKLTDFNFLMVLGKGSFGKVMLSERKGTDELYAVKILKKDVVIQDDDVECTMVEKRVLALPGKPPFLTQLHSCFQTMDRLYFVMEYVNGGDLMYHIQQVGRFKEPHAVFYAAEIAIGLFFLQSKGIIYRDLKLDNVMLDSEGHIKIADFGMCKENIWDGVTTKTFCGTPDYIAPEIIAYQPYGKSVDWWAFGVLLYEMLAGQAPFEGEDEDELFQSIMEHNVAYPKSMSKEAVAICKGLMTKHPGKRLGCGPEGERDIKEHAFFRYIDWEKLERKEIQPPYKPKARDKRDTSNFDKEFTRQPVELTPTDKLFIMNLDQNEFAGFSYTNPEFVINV
Effect on: enzyme activity
Action: inhibitor
Concentration: 0.5 µM
Baseline: control
| SMILES | remaining activity |
| --- | --- |
| COc1cc2ncnc(N3CCN(C(=O)Nc4ccc(Oc5ccccc5)cc4)CC3)c2cc1OC | 102% |
| Cc1ccc(NC(=O)c2ccc(CN3CCN(C)CC3)cc2)cc1Nc1nccc(-c2cccnc2)n1 | 102% |
| O=C(Nc1ccc(Cl)cc1)c1ccccc1NCc1ccncc1 | 93.3% |
| COc1cc2ncc(-c3ccccc3)nc2cc1OC | 88.8% |
| COc1ccc(Cl)cc1NC(=O)Nc1cc(C)nc2ccccc12 | 109% |
| Cn1cnc2cc3c(Nc4cccc(Br)c4)ncnc3cc21 | 95.4% |
| C[S+]([O-])c1ccc(-c2nc(-c3ccncc3)c(-c3ccc(F)cc3)[nH]2)cc1 (centres unmarked) | 97.9% |
| CC(C)[C@H](CO)Nc1nc(Nc2cccc(Cl)c2)c2ncn(C(C)C)c2n1 | 88.6% |
| O=C1NC(=O)/C(=C/c2ccc3nccnc3c2)S1 | 103% |
| Nc1[nH]nc2nnc(-c3c(-c4ccccc4)nn4ccccc34)cc12 | 99.7% |
| Cn1cc(/C=C2\C(=O)Nc3ccc(S(N)(=O)=O)cc32)c2ccccc21 | 86.7% |
| O=c1cc(N2CCOCC2)oc2c1ccc1ccccc12 | 99.9% |
| CS(=O)(=O)CCNCc1ccc(-c2ccc3ncnc(Nc4ccc(OCc5cccc(F)c5)c(Cl)c4)c3c2)o1 | 99.8% |
| COc1cc2ncnc(Nc3ccc(OCc4ccccc4)cc3)c2cc1OC | 106% |
| CC(=O)O/N=C1/C(c2c(O)[nH]c3cc(Br)ccc23)=Nc2ccccc21 | 101% |
| CCC(=O)Nc1ccc2ncnc(Nc3cccc(Br)c3)c2c1 | 101% |
| Cc1nc(Nc2ncc(C(=O)Nc3c(C)cccc3Cl)s2)cc(N2CCN(CCO)CC2)n1 | 88.9% |
| CCN1/C(=C/C(C)=O)Sc2ccc(OC)cc21 | 99.3% |
| CC(C)c1nn(-c2c(Cl)cccc2Cl)c2nc(Cc3ccc(OCCO)cc3)[nH]c(=O)c12 | 96.7% |
| CCOc1cc2ncnc(Nc3cccc(Br)c3)c2cc1OCC | 98.6% |
| COc1ccc(-c2cnc3c(-c4ccsc4)cnn3c2)cc1 | 94.3% |
| CN(C)CCCn1cc(C2=C(c3c[nH]c4ccccc34)C(=O)NC2=O)c2ccccc21 | 12.6% |

For quick reference, copied from above (set 2):
| SMILES | inhibition |
| --- | --- |
| CCn1cc(C(=O)O)c(=O)c2cc(F)c(N3CCN(C)CC3)cc21 | -3.9% |
| CC(COc1ccccc1)NC(C)C(O)c1ccc(O)cc1 (centres unmarked) | -12% |
| CCCCN1CCCC1CNC(=O)c1cc(C#N)c2ccccc2c1OC (centres unmarked) | -7.9% |
| CNC(=C[N+](=O)[O-])NCCSCc1csc(CN(C)C)n1 | -18.6% |
| O=c1cnn([C@@H]2O[C@H](CO)[C@@H](O)[C@H]2O)c(=O)[nH]1 | -16.2% |
| COC(=O)CCc1ccc(OCC(O)CNC(C)C)cc1 (centres unmarked) | -11% |
| CC(=O)NCCCCCCNC(C)=O | -8.9% |
